# Measured values gathered from unrelated publications.
# Organism: Trypanosoma brucei
Structure (SMILES),effect on,technique,strain,time,EC50
Cc1ccc(Nc2nc(N)c(C(=O)c3ccccc3)s2)cc1C,cell proliferation,resazurin,bloodstream form,73 h,0.2 µM
O=C(Nc1nc2ccc(-c3ccc(F)c(F)c3)cc2s1)N1CCC(F)C1 (stereo not drawn),parasite growth,resazurin,,48 h,> 2 µM
COC1=NO[C@H]([C@H](N)C(=O)O)C1,parasite growth,resazurin,,72 h,> 100 µM
O=C(O)C1=CC(=C(c2ccc(O)c(C(=O)O)c2)c2ccc(O)c(C(=O)O)c2)C=CC1=O,cell viability,"flow cytometry, PI",bloodstream form,24 h,> 25 µM
O=C(N[C@H](C(=O)O)[C@@H]1CC(Br)=NO1)OCc1ccccc1,parasite growth,resazurin,,72 h,> 100 µM
COc1ccc2c(C[Se][C@@H]3O[C@H](CO)[C@H](O)[C@H](O)[C@H]3O)cc(=O)oc2c1,parasite growth,,,24 h,4.1 µM
CN(C)c1ccc(N2C(=O)CN(Cc3ccc(F)cc3)C2=S)cc1Cl,parasite growth,resazurin,,48 h,0.003 µM
O=C(NCCc1nc(-c2cccc(F)c2)cs1)N1CCCC(F)C1 (stereo not drawn),parasite growth,,,,< 0.05 µM
CN(C)C1=NO[C@H]([C@H](N)C(=O)O)C1,parasite growth,resazurin,,72 h,> 100 µM
Nc1nc(NCCc2ccccc2)sc1C(=O)c1ccccc1,cell proliferation,resazurin,bloodstream form,73 h,6 µM
O=C(NCCc1nc(-c2cccc(F)c2)cs1)N1CCc2ccccc2C1,parasite growth,resazurin,,48 h,> 5 µM
CC(=O)OC[C@H]1O[C@@H]([Se]Cc2ccc3ccccc3n2)[C@H](OC(C)=O)[C@@H](OC(C)=O)[C@@H]1OC(C)=O,parasite growth,,,24 h,1.2 µM
O=C(NCCc1nc(-c2cccc(F)c2)cs1)N1CCCc2ccccc21,parasite growth,resazurin,,48 h,> 5 µM
Nc1nc(NCC2CCCCC2)sc1C(=O)c1ccccc1,cell proliferation,resazurin,bloodstream form,73 h,0.4 µM
N[C@H](C(=O)O)[C@@H]1CC(Cl)=NN1Cc1ccccc1 (relative stereo),parasite growth,resazurin,,72 h,> 500 µM
Nc1nc(NC2CCCCC2)sc1C(=O)c1ccccc1,cell proliferation,resazurin,bloodstream form,73 h,0.1 µM
CCN1N=C(Cl)C[C@H]1[C@H](N)C(=O)O (relative stereo),parasite growth,resazurin,,72 h,> 500 µM
Cc1ccc(C(=O)Nc2ccc(S(=O)(=O)O)c3cc(S(=O)(=O)O)cc(S(=O)(=O)O)c23)cc1NC(=O)c1cccc(NC(=O)Nc2cccc(C(=O)Nc3cc(C(=O)Nc4ccc(S(=O)(=O)O)c5cc(S(=O)(=O)O)cc(S(=O)(=O)O)c45)ccc3C)c2)c1,parasite growth,,,24 h,0.36 µM

# For quick reference, copied from above:
Structure (SMILES),effect on,technique,strain,time,EC50
O=C(N[C@H](C(=O)O)[C@@H]1CC(Br)=NO1)OCc1ccccc1,parasite growth,resazurin,,72 h,> 100 µM
